Results pooled from the literature.
Lines come from different studies, so protocols differ. Several values in a cell are separate wells, animals, samples, runs or records. Numbers after ± are the reported error.

The IC50 of `CC1(C)CCCC(C)(C2CCC3(C)C2C(O)CC2C4(C)CCC(OC(=O)/C=C\c5ccc(Cl)cc5)C(C)(C)C4C(O)CC23C)O1` (stereo not drawn) is reported as over 30 µM (Hep3B; cell growth or viability, MTT; 24 h).
For `COc1cc2c(cc1O)[C@]1(O)C(=O)c3c(O)cc4c(c3O[C@@H]1CO2)C=CC(C)(C)O4`, the viability was 99.2% (A549; cell growth or viability, MTT; 25 µg/mL).
With `CCCCCCCCCC(=O)N[C@@H](Cc1ccccc1)C(=O)N[C@@H](Cc1ccccc1)C(=O)N[C@@H](Cc1ccccc1)C(=O)N[C@@H](Cc1ccccc1)C(=O)N[C@@H](CCCCN)C(=O)N[C@@H](CCCCN)C(=O)N[C@@H](CCCCN)C(=O)N[C@@H](CCCCN)C(=O)N[C@@H](CCCCN)C(N)=O` the HC50 was < 32 µg/mL and > 32 µg/mL (human red blood cells; haemolysis).
`CCCCCc1ccc(S(=O)(=O)N2CC2C(=O)OC)cc1` (stereo not drawn) has an IC50 of 120 ± 25 µM (Balb/c 3T3 fibroblasts; cytotoxicity, neutral red uptake; DMEM with 5% FBS; 24 h).
With `N=C(N)NCC[C@@H]1NC(=O)[C@H](CCNC(=N)N)NC(=O)[C@H](CCNC(=N)N)NC(=O)[C@H](C(c2ccccc2)c2ccccc2)NC(=O)[C@H](Cc2c[nH]c3ccccc23)NC(=O)[C@H](C(c2ccccc2)c2ccccc2)NC(=O)[C@H](CCNC(=N)N)NC1=O` the HC50 was 190 µg/mL (human red blood cells; hemolysis).
With `Nc1ncnc2c1ccn2[C@@H]1O[C@H](CO)C[C@H]1O` the EC50 was over 64 µM (MRC-5 SV2; cytotoxicity, resazurin; medium with 5% FBS; 72 h).
The IC50 of `COC(=O)C1CN1S(=O)(=O)c1ccc2cc(OC)ccc2c1` (stereo not drawn) is reported as 150 ± 8 µM (Balb/c 3T3 fibroblasts; cytotoxicity, neutral red uptake; DMEM with 5% FBS; 24 h).
`CCCN(CC(=O)N(CCC)CC(=O)N(CCC)CC(=O)N(CCC)CC(=O)N(CC(=O)N(CCC)CC(=O)N(CCC)CC(=O)N(CCC)CC(=O)N(CCC)CC(=O)N(CC(N)=O)Cc1cn(CCCNC(=O)CCCOc2cccc(-c3nc4ccc(-c5nc6ccc(N7CCN(C)CC7)cc6[nH]5)cc4[nH]3)c2)nn1)Cc1cn(CCCNC(=O)CCCOc2cccc(-c3nc4ccc(-c5nc6ccc(N7CCN(C)CC7)cc6[nH]5)cc4[nH]3)c2)nn1)C(=O)CNCc1cn(CCCNC(=O)CCCOc2cccc(-c3nc4ccc(-c5nc6ccc(N7CCN(C)CC7)cc6[nH]5)cc4[nH]3)c2)nn1` has a non-fluorescent cells of 46% (C2C12; flow cytometry; 5 µM, 14 h).
`CC(=O)N[C@H](C(=O)N[C@H](C(=O)N[C@@H](CCCNC(=N)N)C(=O)N1Cc2ccccc2C[C@H]1C(=O)N[C@@H](Cc1ccccc1)C(N)=O)C1CCCCC1)C(C)C` gave a cytokine level of 0.6 ± 0.5 pg/mL (human PBMC; Bio-Plex multiplex, refers to: IL-7; 500 µg/mL, 24 h).
`CC1(C)CCCC(C)(C2CCC3(C)C2C(O)CC2C4(C)CCC(OC(=O)c5cn(-c6ccccc6)nn5)C(C)(C)C4C(O)CC23C)O1` (stereo not drawn) gave an IC50 of over 30 µM (Hep3B; cell growth or viability, MTT; 24 h).
The efflux ratio of `CNC(=O)C(Cc1ccccc1)NC(=O)C(O)(Cc1ccccc1)CN(Cc1ccc(Br)cc1)NC(=O)C(NC(=O)OC)C(C)(C)C` (stereo not drawn) is reported as 0.8 (Caco-2; pH 7.4; reference: B-to-A over A-to-B).
With `CC(C)(C)n1cc(CN(Cc2cn(CC(=O)O)nn2)Cc2cn(C(C)(C)C)nn2)nn1` the intracellular concentration was 4.3 ± 0.2 µM (OVCAR-5; cellular uptake, LC-ESI-MS/MS; 200 µM, 10 min, added: CuSO4 100 µM and ascorbate 500 µM).

A few entries again:
With `Nc1ncnc2c1ccn2[C@@H]1O[C@H](CO)C[C@H]1O` the EC50 was over 64 µM (MRC-5 SV2; cytotoxicity, resazurin; medium with 5% FBS; 72 h).
The IC50 of `COC(=O)C1CN1S(=O)(=O)c1ccc2cc(OC)ccc2c1` (stereo not drawn) is reported as 150 ± 8 µM (Balb/c 3T3 fibroblasts; cytotoxicity, neutral red uptake; DMEM with 5% FBS; 24 h).
